# Results collected from several papers.
# Every numbered part comes from another study and shows a few of its results, in no order.

# Study 1
# Target: Sal-like protein 4, full length isoform A (SALL4, Homo sapiens, UniProt Q9UJQ4, residues 1-1053)
# Sequence of UniProt Q9UJQ4 (whole entry, looked up): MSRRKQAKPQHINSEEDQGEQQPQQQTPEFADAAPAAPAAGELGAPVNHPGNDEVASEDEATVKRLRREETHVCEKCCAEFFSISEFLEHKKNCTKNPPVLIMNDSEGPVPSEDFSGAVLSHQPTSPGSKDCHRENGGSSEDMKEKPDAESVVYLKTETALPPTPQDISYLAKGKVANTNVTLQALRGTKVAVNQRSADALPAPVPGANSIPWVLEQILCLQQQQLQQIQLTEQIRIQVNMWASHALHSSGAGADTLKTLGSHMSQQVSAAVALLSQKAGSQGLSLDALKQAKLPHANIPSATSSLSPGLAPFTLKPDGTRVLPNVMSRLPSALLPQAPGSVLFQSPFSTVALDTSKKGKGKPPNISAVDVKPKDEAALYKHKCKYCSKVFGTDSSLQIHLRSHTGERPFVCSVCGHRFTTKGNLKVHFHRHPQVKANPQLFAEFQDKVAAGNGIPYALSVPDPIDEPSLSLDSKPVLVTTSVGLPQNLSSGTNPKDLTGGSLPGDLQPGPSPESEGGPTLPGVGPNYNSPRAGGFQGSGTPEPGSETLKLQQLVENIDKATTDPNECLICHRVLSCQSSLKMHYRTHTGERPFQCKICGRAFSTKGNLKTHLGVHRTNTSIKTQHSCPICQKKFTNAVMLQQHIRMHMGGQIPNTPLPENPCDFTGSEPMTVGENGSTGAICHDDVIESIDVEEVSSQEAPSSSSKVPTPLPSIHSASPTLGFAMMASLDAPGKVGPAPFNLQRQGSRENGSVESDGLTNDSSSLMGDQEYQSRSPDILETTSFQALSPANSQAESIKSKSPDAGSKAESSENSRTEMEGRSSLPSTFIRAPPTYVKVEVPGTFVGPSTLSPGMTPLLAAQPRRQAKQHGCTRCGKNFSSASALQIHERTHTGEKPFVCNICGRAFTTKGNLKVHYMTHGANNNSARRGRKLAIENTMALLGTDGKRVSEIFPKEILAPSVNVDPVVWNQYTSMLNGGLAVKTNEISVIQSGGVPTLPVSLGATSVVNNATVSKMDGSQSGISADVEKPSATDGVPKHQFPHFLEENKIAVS
# Method: universal PBM
# Form: double-stranded DNA, one strand shown
# Sample: in vitro
# Concentration: 600 nM
# Notes: 8-mer, flanks averaged, mean of replicates
# Direction: higher = stronger binding
Oligonucleotide,E-score
CTAGACTC,-0.124
GTATACCA,0.0572
CTACCCAA,0.068
ACGCGGCC,-0.241
AAGTACTC,-0.0184
CCGTTGCG,-0.189
AGCTCTAT,-0.0076
AACACCAC,-0.0591
TGCAGACA,0.111
ACATCCGA,-0.181
ATGTAAAC,0.248
CCCTTCGG,-0.35
CTATTCCC,-0.0939
TAAGAGGA,0.102
CATAGCAC,0.165
ACTCTGAT,0.0512
GCTGTAAA,0.169
ACCGATCT,-0.208
CAAAGTTG,0.011
CTGATGAC,-0.12
AGGGCTAG,-0.103
GCCTAATA,0.114
GCTGAGCC,-0.266
CTCTTCTA,-0.0382
CGCAAGAG,-0.114

# Study 2
# Target: Prothrombin, mature alpha-thrombin (F2, Homo sapiens, UniProt P00734)
# Method: aptamer microarray, sandwich
# Form: DNA with 2'F-ANA
# Sample: in vitro
# Concentration: 200 nM
# Notes: whole 15-mer aptamer, many near background
# Added: Cy3 exosite-II aptamer, 400 nM
# Direction: higher = stronger binding
# Oligonucleotide: GGTTGGTGTGGTTGG
Modification,mean fluorescence intensity [a.u.]
2'F-ANA at 1 4 5 7 9 10 12 13 14,45.6
2'F-ANA at 1 3 4 6 7 12 13 14,87.3
2'F-ANA at 3 6 8 11 12 13 14,528
2'F-ANA at 7 8 9 10 11 12 13 15,180
2'F-ANA at 1 3 7 10 12 15,121
2'F-ANA at 1 3 4 5 6 10 13,47.8
2'F-ANA at 2 3 4 6 7 9 11 12 13 14 15,200
2'F-ANA at 3 6 10 11 13,450
2'F-ANA at 2 4 5 7 8 10 12 15,52.5
2'F-ANA at 2 5 6 9 11 12 14,49.2
2'F-ANA at 1 5 6 7 8 9 10 13 15,47.6
2'F-ANA at 1 3 5 8 9 10 12,65.6
2'F-ANA at 2 4 5 7 10 11 12 14,44.8
2'F-ANA at 4 8 11 12 14,135
2'F-ANA at 2 3 4 6 7 9 10 13 15,169
2'F-ANA at 1 2 5 8 10 13 15,54.7

# Study 3
# Target: RNA binding protein fox-1 homolog 2, RRM domain, GST-SBP tag (RBFOX2, Homo sapiens, UniProt O43251-10, residues 100-194)
# Method: RNA Bind-n-Seq
# Form: RNA
# Sample: in vitro
# Concentration: 365 nM
# Notes: natural RNA segment, single round, ends assumed
# Relative to: no-protein control
# Direction: higher = stronger binding
# Constant ends, left off below: GGGAGUUCUACAGUCCGACGAUC … UGGAAUUCUCGGGUGCCAA
# Residues (chain): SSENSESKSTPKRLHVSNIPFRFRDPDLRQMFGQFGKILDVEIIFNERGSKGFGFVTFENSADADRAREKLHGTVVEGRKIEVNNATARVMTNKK
Oligonucleotide,RBNS enrichment (R)
UCCCCAUGGUUUCCAGCUCAAUCCACCCCUGACCCAUCUGUCAGCUUUUUCCCAGGGAGCCGUUUCAGGGGUUCUGGGCAGUAGGCUGGGCCUGGCCUCAGAACCUGGUG,0.32
CGCCGCACGCCAGCCCGCUUUGGACUGUGAGCUGAGGCUGUCCCAGGGGAGGAUGGUGGCCACGUACUAAGAUCUUGGCUCUCCAGCCCGUGUUUCCUAAGGACUCCGCA,1.82
GAACAUGUUUUCUUCAGGAACAACCAGAGGUAUCACAAACACUGUUACUCAUCUACUGGCUCAGACUGUACUACUUUUUUUUUUUUUUUUCCUGAAAAAGAAACCAGAAA,0.416
CCCUGGCUACUGGGUCAAUAAUCUUUCAGGCCAUGAAUCUGGGAGGAGAGUGGUCUGUAAGCUCCAUCAGCCCUGUCCUGAGACAGCAGGGGGGAAGGACACUGGAGACU,0.514
UUGGGUGUGGUGAGGGAGGGGACAUAUCCUAGGGUUUUCAAAUAAAACAAUCAGAAAAAAAAAAAAAGCUCUGUGAGGCGCCUCCUGACUGCCUGGUCCUGUGUGGGUGU,1.32
GCUGGAGAUCACUGGAAAGGUGUCUCAGUCACAAAACUUCUCCCUCUACUACUGGAUGAAAUGUCUGCAUUUCCACCAAAAUCUACCCAGUCACCCAGGGAAUAACAACU,0.365
AGAUUAAACCAAUUAUAACUUAUUAGCAGUCGCGAGCACAUGUUCAUAUAGUCAAUGUAAAAAUACACUAAUGAGUAUUUGGUAAAUCCCAGUAGGCUUUUACCAUUAGC,0.483
GGGAACGCCUCUCCCCUCCUUGUCCUUUCCAGUGGGUCUCAUCCCUUAUCUCGCUCUGGUGUUCACAGGCGGCAUGUGUUCCAGCCGACGAUCGCAUCUUGUGUCGCUGA,4.83
CCUAAAAUAGAAUCAUUGCUUUUUGUGUUUCUCAUCCCAACCUUGAAGUUGUCAUGUCAUCCUUUUCUGUCUUCCACUCUCCUGGUCUAGAACCUUGUUGAUCAUGCUCA,0.707
AUUGUGUAACAAGUACUGCUCCCAGCAGCAAUUAGGGAGAAAACUAGUCUAAAUUAUUUCAACUGGAAAAAAGAAAAAAGAGUCCUCUUCUUUUCCCAGCCUUUUGCAGA,0.385
CACCUUCUCAUCUCUACCUUUUAAGGGAUAUGGAAAGGUCUGGAGCUCUGUCUGACCCCACACUCUCCAUUUUCCCCAGCCAAGGCAGACAGCAGCACUAGCAGACGGUC,0.285
AUAAAGGGAGGUACCUAAAUACUCAAAUAAUGUAUAUAUUCUUUUUCAUAACAUAUGGAAUGCUUUAAGCAAUUGUUUUGAAAAAAAUCUGCGUAUCUUUGACUUAAUUG,0.524

# Study 4
# Target: RING finger protein unkempt homolog, zinc fingers 1-6, GST-SBP tag (UNK, Homo sapiens, UniProt Q9C0B0, residues 30-357)
# Sequence of UniProt Q9C0B0 (30-357, looked up): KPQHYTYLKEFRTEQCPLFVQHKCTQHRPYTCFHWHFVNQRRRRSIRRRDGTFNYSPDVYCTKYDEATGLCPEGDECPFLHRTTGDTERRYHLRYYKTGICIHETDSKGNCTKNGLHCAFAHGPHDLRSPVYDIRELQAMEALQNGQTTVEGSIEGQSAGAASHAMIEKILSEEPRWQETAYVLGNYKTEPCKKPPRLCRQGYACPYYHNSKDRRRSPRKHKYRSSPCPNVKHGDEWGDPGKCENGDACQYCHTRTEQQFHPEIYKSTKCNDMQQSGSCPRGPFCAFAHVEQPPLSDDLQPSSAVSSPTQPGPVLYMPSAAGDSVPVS
# Method: RNA Bind-n-Seq
# Form: RNA
# Sample: in vitro
# Concentration: not given
# Notes: RNA with constant flanks, human and mouse sites, ends assumed
# Relative to: input RNA pool
# Direction: higher = stronger binding
# Constant ends, left off below: GGGAGUUCUACAGUCCGACGAUC … CAACAGAGGAUUGAGCAUCA
Oligonucleotide,bound/input enrichment
AAUACUGUUCCUGGAUAUGACUUUUUGGUGAAUUCUGUUUGGCCACAAAUAGUACAAGGAUUAGAAGAAAAGUUACCCUCGCUUUUUAAUCCUGGGAAUCCCGAUGCAUUUCAUGAGAAA,0.14 ratio
CUCUGUCCUGAGUGUGAGAAUCCUGAAACAGAUCUGCAUGUCAAUCCAAAGAAGCAAACAAUAGGUAAUUCUUGUAAAGCCUGUGGGUACCGAGGCAUGCUUGACACACAUCAUAAACUC,0.233 ratio
UGUGAAAAAUCAGAUGAAUUGAUAAAAGAGUUCCCUGCAACCAAUUGAAAAGUGUUCUGUGCGUCUGUUUUGUGUCUGGUGCAGAAUAUGACAAUCUACCAACUGUCCCUUUGUUUGAAG,0.143 ratio
UUUCACUUUUUUUUUUAGUGGUUUAUAACACUCUGGUCUUCCCUUCAAAUCGUGUAUGCAAACAGGAACACAUUUAAUGUGACUCAACUGGAAACCGGUGCUCAGCAGUUAGGUGUAACA,1.15 ratio
CCUCAGAAGAGGAAUCUUGCUUCUUUAAAGCUCUCAUGGUGCUUUCAUUUUAAAGGAGACUUUAGAAGAAAAAGAAUGGAAUGAAGUUUUGAGUUACAAUUCAAAUUUGGGGAUCAAUCC,0.101 ratio
UGUUACUCUUAUUUAAUAUAAUCUCUAUUGUAUUGAUUUCUUCUGUAUUUACCUUUUGGAUUUUGUAAAACAGAAGUUUAAGACCACAAGUUAGAAGAAAGGUCACAUAUUUCAAACACA,0.587 ratio
UAUAAGCCCAUUCAGAGUCCCAGAGGGAGCAAGCUUCCUAUUCCAGUGAAAUCCAUCCUACCUGGAGCCAAGCCUGGCCAUAUCCUGACAAACGGAGUUAGUUCCAGUUUCCUUAACAGG,0.249 ratio
AAAAAGAAAACAUUCCAGAUGCAUGAUCCAGCUGUGUGUUUUCAAUCCUUGGGAGGGUGCCAUCCACAUUUUAACAGUACCUGUGCCUGAGAAUUUAAUUUUUAAAAGACUUUGAUGUGU,0.546 ratio
GAAGAGGUUCUGCUGGAACAAGCGGGUGCUGAUGCAACUGAAAGCUUUGAAGAUGUCGGCCACUCCCCUGAUGCCAGGGAGAUGCUAAAGCAGUACUACAUUGGAGAUGUCCAUCCGAGU,0.12 ratio
ACGAUCAUUUGUGGGCAUCCCCUGUUGUCCAGGAGAACCCCGCUUCGGCCUCCCCAACCCAUUUCACUUCCCUCCACGAUCCCGCUCUCGCGGAGGCGAGGAGAUUCCCAGACAGAAGCC,0.152 ratio
UAUCAUAAUGUGUAUACUCGAGAUCCUAAUUAUCUCAAUUUGUUCAUUAUUGUAAUGGAGAAUAGUAAUCUCCACAGUCCUGAAUAUCUGGAAAUGGCGUUGCCAUUAUUUUGCAAAGCU,0.314 ratio

# Excerpt of the above (study 4):
Oligonucleotide,bound/input enrichment
UAUAAGCCCAUUCAGAGUCCCAGAGGGAGCAAGCUUCCUAUUCCAGUGAAAUCCAUCCUACCUGGAGCCAAGCCUGGCCAUAUCCUGACAAACGGAGUUAGUUCCAGUUUCCUUAACAGG,0.249 ratio
CUCUGUCCUGAGUGUGAGAAUCCUGAAACAGAUCUGCAUGUCAAUCCAAAGAAGCAAACAAUAGGUAAUUCUUGUAAAGCCUGUGGGUACCGAGGCAUGCUUGACACACAUCAUAAACUC,0.233 ratio
AAUACUGUUCCUGGAUAUGACUUUUUGGUGAAUUCUGUUUGGCCACAAAUAGUACAAGGAUUAGAAGAAAAGUUACCCUCGCUUUUUAAUCCUGGGAAUCCCGAUGCAUUUCAUGAGAAA,0.14 ratio
UUUCACUUUUUUUUUUAGUGGUUUAUAACACUCUGGUCUUCCCUUCAAAUCGUGUAUGCAAACAGGAACACAUUUAAUGUGACUCAACUGGAAACCGGUGCUCAGCAGUUAGGUGUAACA,1.15 ratio
